{"data": "Published values collected from several papers", "note": "A part holds a random share of what one study measured. Changes are numbered by the printed parent chain."}
{"data": "Series 1", "target": "Histone acetyltransferase KAT6A, winged helix 2, GST fusion (KAT6A, Homo sapiens, UniProt Q92794, residues 85-181)", "method": "protein binding microarray", "form": "double-stranded DNA, one strand shown", "medium": "in vitro", "concentration": "not given", "notes": "8-mer, flanks averaged, mean of 2 arrays, mostly near background", "relative to": "not given", "reading": "higher = stronger binding", "Construct (chain)": "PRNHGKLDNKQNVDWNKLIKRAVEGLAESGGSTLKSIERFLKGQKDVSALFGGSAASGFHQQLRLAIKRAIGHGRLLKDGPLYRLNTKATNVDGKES"}
{"Sequence": "GGGGATGA", "E-score": -0.173}
{"Sequence": "ACGGCGAT", "E-score": 0.205}
{"Sequence": "GCAGCTCC", "E-score": 0.0348}
{"Sequence": "GCATCAAA", "E-score": 0.072}
{"Sequence": "CTGATCGA", "E-score": -0.00536}
{"Sequence": "AAGGCTTC", "E-score": -0.146}
{"Sequence": "ACGCCAAG", "E-score": -0.123}
{"Sequence": "ACTTTATC", "E-score": 0.119}
{"Sequence": "GCCTTGGA", "E-score": -0.0177}
{"Sequence": "ACACCGCG", "E-score": 0.103}
{"data": "Series 2", "target": "Interferon regulatory factor 7, full length, phosphomimetic (IRF7, Homo sapiens, UniProt Q92985, residues 1-503, S101K/S471D/S472D/S475D/S476D/S477D/S483D/S484D/S487D)", "method": "protein-binding microarray", "form": "double-stranded DNA, one strand shown", "medium": "in vitro", "concentration": "250 nM", "notes": "60-bp whole probe", "with": "salmon DNA 0.4 mg/ml", "relative to": "random background probes", "reading": "higher = stronger binding", "constant ends, left off below": "GCCTAGCAC … GTCTTGATTCGCTTGACGCTGCTG", "Target sequence (chain)": "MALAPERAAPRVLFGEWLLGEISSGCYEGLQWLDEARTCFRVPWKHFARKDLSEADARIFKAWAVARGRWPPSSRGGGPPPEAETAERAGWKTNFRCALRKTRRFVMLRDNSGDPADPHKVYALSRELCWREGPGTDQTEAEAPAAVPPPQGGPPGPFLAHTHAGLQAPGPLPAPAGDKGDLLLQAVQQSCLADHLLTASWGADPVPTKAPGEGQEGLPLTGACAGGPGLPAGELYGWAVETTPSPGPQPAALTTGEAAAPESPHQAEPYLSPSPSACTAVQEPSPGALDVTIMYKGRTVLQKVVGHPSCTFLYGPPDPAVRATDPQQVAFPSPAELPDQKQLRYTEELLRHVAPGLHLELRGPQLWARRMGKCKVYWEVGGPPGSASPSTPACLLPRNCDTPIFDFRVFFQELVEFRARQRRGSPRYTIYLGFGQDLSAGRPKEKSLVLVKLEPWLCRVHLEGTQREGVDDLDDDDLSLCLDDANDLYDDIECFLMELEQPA"}
{"Sequence": "AGACAAGCATTTGGTGATGCGTGCTAG", "log fluorescence": "-0.901 z-score"}
{"Sequence": "ATAGGTTTCGGTCTCGGTTAGTGCTAG", "log fluorescence": "8.62 z-score"}
{"Sequence": "CTAGGACTGGGACTGGGTTAGTGCTAG", "log fluorescence": "0.231 z-score"}
{"Sequence": "TTAGGTTTCGGGACGGGGTTAGTGCTA", "log fluorescence": "4.81 z-score"}
{"Sequence": "TTAGATTTCGGGTATCGATTAGTGCTA", "log fluorescence": "1.47 z-score"}
{"Sequence": "GACGGACTGGGACTGGGGAAGTGCTAG", "log fluorescence": "-0.701 z-score"}
{"Sequence": "TTAGGTATCGCGACTGGGTTAGTGCTA", "log fluorescence": "-0.503 z-score"}
{"data": "Series 3", "target": "CCNA2, cyclin fold, Cln2 fusion (human)", "method": "yeast growth competition, sequencing", "medium": "yeast", "notes": "strong parent motif", "relative to": "not given", "reading": "higher = stronger binding", "starting sequence": "SAMHD1 docking peptide (human); ASKSRVQLFKDDP"}
{"Change": "ASKSRVQLNKDDP [F9N]", "normalised enrichment score": 0.381}
{"Change": "ASKSRVQLLKDDP [F9L]", "normalised enrichment score": 0.363}
{"Change": "ASKSRVQYFKDDP [L8Y]", "normalised enrichment score": 0.336}
{"Change": "ASKSIVQLFKDDP [R5I]", "normalised enrichment score": 1.02}
{"Change": "ASKSRVQLFRDDP [K10R]", "normalised enrichment score": 2.69}
{"Change": "ASKSRVQLFWDDP [K10W]", "normalised enrichment score": 1.55}
{"Change": "ASKSRVQLFKPDP [D11P]", "normalised enrichment score": 2.58}
{"data": "Other studies, line by line"}
{"Molecule": "PhoQ, residues 284 288 289 292 302 303 SSTMSV", "target": "PhoP, residues 12 14 15 18 19 NHFIF (Escherichia coli, UniProt P23836)", "test": "Sort-seq, refers to: YFP reporter", "test system": "E. coli", "setting": "PhoQ-PhoP variant library, with: 10 µM Mg2+", "how to read": "relative to: high Mg2+ state, higher = stronger signaling", "endpoint": "fold induction", "value": 13}
{"note": "Repeated from above (series 1):"}
{"Sequence": "ACGCCAAG", "E-score": -0.123}
{"Sequence": "ACTTTATC", "E-score": 0.119}
